Experimental data gathered from unrelated publications.
Every numbered part comes from another study and shows a few of its results, in no order. Substitutions count along the parent as printed.

Sample 1
Target: RNA binding protein fox-1 homolog 2, RRM domain, GST-SBP tag (RBFOX2, Homo sapiens, UniProt O43251-10, residues 100-194)
Method: RNA Bind-n-Seq
Form: RNA
Medium: in vitro
Tested at: 365 nM
Notes: natural RNA segment, single round, ends assumed
Relative to: no-protein control
Reading: higher = stronger binding
Constant ends, left off below: GGGAGUUCUACAGUCCGACGAUC … UGGAAUUCUCGGGUGCCAA
Construct (chain): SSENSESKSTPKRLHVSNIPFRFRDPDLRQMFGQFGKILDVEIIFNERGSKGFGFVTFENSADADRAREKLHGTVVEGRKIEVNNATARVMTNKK
`AAAGAAGGGUCUCACGUGGCUGGCCUGGCUCCUCCGUAGACCCCUGUUCUUUUCAACCUCUGCCCACCCGUGCAUGUCAUCACAAACAUUUGCUCUUAAGUUACAAGAGA`: “RBNS enrichment (R)” 1.42.
`GUAAAAGGAGGAGCCUACCAAGUUAGGAGGGAGAAAAAAGAUUAACCAGCUAGUUAGAAAACCAUUUAUUUUUCUUUCUUCUUUCCCCACUUGUUAGAGGUAGGGCUAUG`: “RBNS enrichment (R)” 0.647.
For `AUAGUUAUGAAAUCUUAGCCACAAAAAAUAAAUCAGGUAAACAUUUUAACCUGUCGUUAAGUGUUGUAACUUCAAAAAACCAAAAUGCUUAUUUUAAUGUGAUUUUUCUA`, “RBNS enrichment (R)” read 0.774.
`CACACACACACACACACACACAAUGGGAGUGGGAUUAAGGUUUUCAUAAAUCUCAGCCAAUGGUCUUCAAAGCCUUUACCUGAAGAGACCACACUCCAACACGGAGCUGG`: “RBNS enrichment (R)” 0.819.
For `UGGCCACUGAGUGGUUAUCACCUCAGUGAAUCUUCCCAGGGCUCUGCAGUAAAAACAAAGGACAACCCAGCCAAGCAGAGGAAGAAGCUGCCGAAGGGGACAGACUCCAC`, “RBNS enrichment (R)” read 0.269.
`CAUUGAAGGGAGGAGUUGCUUAAACCAAUGGGACUAAAACCUGAUGGGACAAUAACGCCUUUGGAGGAAGCACUCAACCAGUACUCUGUCAUCGAAGAGACCAGCUCUGA` — result for “RBNS enrichment (R)”: 0.334.
Under “RBNS enrichment (R)”, `GUCUGUCUAGAGUGAAUACUUCACAGAUCUCAUUUAGGGAGAGCCUGGUCUAUGGACUAAGCUGAAUUUUCCCACAUAGAUUCUAAAAUUAAAUGUAUUAGUUGCUAAGU` is recorded as 0.504.
Under “RBNS enrichment (R)”, `UGCUGUGGGACUGUUUUUUCCUCUGACAUGCCAAAUGUAACUUCUGUAAGUGGUGGAGAGUGCUGUCCUGUGUAGGCAGCUUCUGACUGCAGUUGAAAUGUAGUCCCCUA` is recorded as 0.257.
`GCAUUGUAAAAAACAGAUACUGUGGUAGAUUUCUAGAAAUUCAUUCACAUUUAAGACUUCUAAAAUGGAAUAAUAGCCUUUUGUUUUUCAUGAGCAUAUUCGCACCCCUA`: “RBNS enrichment (R)” 0.465.
`GGCCUUCCCCCACCACUGGGCAGAGGCUGGACAGCACGGACUUCUAGAGAGAGCCGCGUUGCCAGUUCCUCUCCCACUCGCUCGUCCUUAUCCACCACGCUAUUAUAGUU` — result for “RBNS enrichment (R)”: 0.363.
Under “RBNS enrichment (R)”, `UUUUGAUAAUGUAAGGAAACACAGGGACCACAAAACCUUUUUUUUUUUUUUAAGUGUGAAAGAUUAGUGCCUUUUGGCAUACUUUUGAUUUUAGAGGAUAUAGUAUCGGC` is recorded as 0.442.
`GUGCUGUCCUGACCACAGAGUCUCCAGAACUGAGGACAUAAUUGCUCCUGUAUUUCUGUGUUCCUCGGCCCUCUUGUCUGCCCAUUUCGUGUCCAGAGAGGGACAGGGUC` — result for “RBNS enrichment (R)”: 0.276.

Sample 2
Target: CCNA2, cyclin fold, Cln2 fusion (human)
Method: yeast growth competition, sequencing
Medium: yeast
Notes: strong parent motif
Relative to: not given
Reading: higher = stronger binding
Starting sequence: WEE1 docking peptide (human); HKTFRKLRLFDTP
For `L7Y`, “normalised enrichment score” read 0.935.
Under “normalised enrichment score”, `T3V` is recorded as 2.77.
For `P13E`, “normalised enrichment score” read 0.893.
`R8I` — result for “normalised enrichment score”: 1.8.
Under “normalised enrichment score”, `L9I` is recorded as 0.931.
For `T12S`, “normalised enrichment score” read 2.03.
For `D11I`, “normalised enrichment score” read 0.989.
Under “normalised enrichment score”, `T3E` is recorded as 0.63.
Under “normalised enrichment score”, `D11R` is recorded as 0.989.
`T3H`: “normalised enrichment score” 2.66.
Under “normalised enrichment score”, `K6S` is recorded as 1.37.
`H1A` — result for “normalised enrichment score”: 0.902.
For `T12N`, “normalised enrichment score” read 2.41.
For `P13L`, “normalised enrichment score” read 1.74.
Under “normalised enrichment score”, `R8M` is recorded as 1.39.
For `F10R`, “normalised enrichment score” read 1.31.

Sample 3
Target: Sal-like protein 4, full length isoform B (SALL4, Homo sapiens, UniProt Q9UJQ4-2, residues 1-616)
Method: universal PBM
Form: double-stranded DNA, one strand shown
Medium: in vitro
Tested at: not given
Notes: 8-mer, flanks averaged, mean of replicates
Reading: higher = stronger binding
Construct (chain): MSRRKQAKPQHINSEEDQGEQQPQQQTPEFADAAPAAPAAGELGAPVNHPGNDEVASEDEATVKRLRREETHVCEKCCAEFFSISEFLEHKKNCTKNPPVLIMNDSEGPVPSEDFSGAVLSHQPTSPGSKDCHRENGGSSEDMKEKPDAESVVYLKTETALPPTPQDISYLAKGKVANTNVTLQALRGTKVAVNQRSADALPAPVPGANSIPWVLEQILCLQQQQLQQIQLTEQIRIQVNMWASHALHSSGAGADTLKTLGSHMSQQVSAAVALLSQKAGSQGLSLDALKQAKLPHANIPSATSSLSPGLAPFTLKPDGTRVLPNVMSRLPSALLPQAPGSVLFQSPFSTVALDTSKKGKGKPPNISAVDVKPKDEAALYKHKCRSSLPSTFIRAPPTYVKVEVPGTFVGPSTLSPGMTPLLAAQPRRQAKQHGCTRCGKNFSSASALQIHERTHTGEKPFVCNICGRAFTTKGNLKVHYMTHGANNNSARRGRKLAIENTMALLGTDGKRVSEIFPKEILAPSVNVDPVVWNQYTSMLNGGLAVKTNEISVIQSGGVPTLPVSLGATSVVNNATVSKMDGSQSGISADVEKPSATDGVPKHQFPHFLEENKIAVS
With `TCCGGTCA` the E-score was -0.318.
`CCACATTC` gave an E-score of -0.0433.
`GCGAAGAC` has an E-score of -0.322.
For `AGTAAAGA`, the E-score was 0.139.
`AGACCACC` has an E-score of -0.209.
`CCGTTCCC` gave an E-score of -0.336.
The E-score of `GGCAAGAC` is reported as -0.0672.
With `AGCGGGTA` the E-score was -0.122.
The E-score of `CGACACCA` is reported as -0.144.
`ATAGAAGA` gave an E-score of 0.214.
The E-score of `TCGTGGCA` is reported as -0.00377.
The E-score of `CACGGATC` is reported as -0.216.
`ACACGCGA` gave an E-score of 0.0315.
With `CAAAACCA` the E-score was 0.168.
`AACAGATC` gave an E-score of 0.00946.
With `CGCTAAAA` the E-score was 0.0105.
`GGCCCGGA` has an E-score of -0.406.
`CGTTCGAG` has an E-score of -0.145.
With `GGAAGAGA` the E-score was 0.0385.
The E-score of `CCGTAAAC` is reported as -0.00606.
With `CTCCGCCA` the E-score was -0.288.
`ATAGCTTG` has an E-score of 0.138.

Single results of other studies
For `PhoQ, residues 284 288 289 292 302 303 ALASRC`, the fold induction was 1.08 (PhoP, residues 12 14 15 18 19 SGWQI (Escherichia coli, UniProt P23836); Sort-seq, measured: YFP reporter; E. coli; PhoQ-PhoP variant library, together with: 10 µM Mg2+; relative to: high Mg2+ state, higher = stronger signaling).

Excerpt of the above (sample 2):
`R8I` — result for “normalised enrichment score”: 1.8.
Under “normalised enrichment score”, `T3V` is recorded as 2.77.
Under “normalised enrichment score”, `L9I` is recorded as 0.931.
For `T12S`, “normalised enrichment score” read 2.03.
For `P13E`, “normalised enrichment score” read 0.893.
Under “normalised enrichment score”, `K6S` is recorded as 1.37.
For `T12N`, “normalised enrichment score” read 2.41.
For `P13L`, “normalised enrichment score” read 1.74.
